Measured values gathered from unrelated publications.
± marks the error that the study gave.
Organism: Leishmania donovani

SMILES	test	test system	setting	scale	quantity	value
CC/C(=C\c1ccc(OCC(=O)NC(C(=O)N2CCOCC2)c2ccccc2)cc1)[N+](=O)[O-] (centres unmarked)		macrophages, intracellular amastigotes	6.25 µM, 72 h		inhibition	46.8%
CCOC(=O)C(CC)NC(=O)CN1C(=O)S/C(=C\c2ccc([N+](=O)[O-])cc2)C1=O (centres unmarked)	parasite growth, resazurin		promastigote		IC50	> 100 µM
CCCCCCCCCCCCCCCCC1CC(=O)NCCCN(C)CCCCN(C)CCCN1C (centres unmarked)	Alamar blue		72 h, 26 °C, promastigotes		IC90	6.3 µg/mL
CCC(NC(=O)CN1C(=O)N/C(=C\c2ccc(C)cc2)C1=O)C(=O)OC (centres unmarked)	parasite growth		72 h, intracellular, amastigote		IC50	7.68 µM
CCCCOC(=O)/C=C/c1ccc(O)c(O)c1		MHOM/ET/67/L-82	concentration not given, axenic amastigotes, active if IC50 < 10 µM		antileishmanial activity	active
CCCCCC1CC2CCCC3CC(C)N=C(N1)N32 (centres unmarked)	parasite growth, Alamar Blue	promastigotes			IC90	20.9 µM
CCOC(=O)CNC(=O)CN1C(=O)S/C(=C\c2ccc(C)cc2)C1=O	parasite growth		24 h, intracellular, amastigote		IC50	> 10 µM
CCCOC(=O)/C=C/c1ccc(O)c(O)c1		MHOM/ET/67/L-82	concentration not given, axenic amastigotes, active if IC50 < 10 µM		antileishmanial activity	active
Cc1nc(C)c(C(=O)Nc2ccc(F)c(-c3nc4ncc(-c5ccccn5)cn4n3)c2)o1		primary mouse macrophages, intracellular amastigotes			EC99	42 ± 5.6 nM
CCCCCCCCOC(=O)/C=C/c1ccc(O)c(O)c1		MHOM/ET/67/L-82	concentration not given, axenic amastigotes, active if IC50 < 10 µM		antileishmanial activity	active
O=S(=O)(CCC(F)(F)F)N[C@H]1CC[C@H](Nc2ncc3c(-c4ccccn4)n[nH]c3n2)CC1		LV9, BALB/c mouse, visceral leishmaniasis	oral, 50 mg/kg twice daily, 5 days		parasite reduction	> 70%
CC(=O)Oc1ccc(Cn2cc(C)c(=O)[nH]c2=O)cc1C1OC(c2ccccc2)=NN1C(C)=O (centres unmarked)	parasite growth, SYBR Green	RAW264.7	intracellular, amastigote		IC50	> 100 µM
CCOC(=O)C(CC)NC(=O)CN1C(=O)S/C(=C\c2ccc(OC)cc2)C1=O (centres unmarked)	parasite growth		72 h, intracellular, amastigote		IC50	> 10 µM
CC(C)OC(=O)/C=C/c1ccc(O)c([N+](=O)[O-])c1		MHOM/ET/67/L-82		relative to: IC50 L6 cells over IC50 amastigotes	selectivity index	113
CCOC(=O)C(CC)NC(=O)CN1C(=O)S/C(=C\c2ccc(C)cc2)C1=O (centres unmarked)	parasite growth		72 h, intracellular, amastigote		IC50	0.57 µM
COC(=O)/C=C/c1ccc(O)c([N+](=O)[O-])c1		MHOM/ET/67/L-82		relative to: IC50 L6 cells over IC50 amastigotes	selectivity index	375
CC/C(=C\c1ccc(OCC(=O)NC(C(=O)N2CCSCC2)c2ccccc2)cc1)[N+](=O)[O-] (centres unmarked)		macrophages, intracellular amastigotes	12.5 µM, 72 h		inhibition	90.3%

For quick reference, copied from above:
SMILES	test	test system	setting	scale	quantity	value
CCCCCCCCCCCCCCCCC1CC(=O)NCCCN(C)CCCCN(C)CCCN1C (centres unmarked)	Alamar blue		72 h, 26 °C, promastigotes		IC90	6.3 µg/mL
CCC(NC(=O)CN1C(=O)N/C(=C\c2ccc(C)cc2)C1=O)C(=O)OC (centres unmarked)	parasite growth		72 h, intracellular, amastigote		IC50	7.68 µM
